Experimental data collected from several papers.
Target: Serine/threonine-protein kinase pim-2 (PIM2, Homo sapiens, UniProt Q9P1W9)

Structure (SMILES)	test	setting	scale	quantity	result
Cc1cccc(O[C@H]2CCC[C@@H](C(C)CNCc3ccncc3)C2)c1 (relative stereo)	enzyme activity, inhibitor	10 µM	–	inhibition	1%
O=C=[N][Ru-4]123([n]4c5ccc(O)cc5c5c6c(c7cc(F)c[n+]1c7c54)C(=O)NC6=O)[S+]1CC[S+]2CC[S+]3CC1 (stereo not drawn)	enzyme activity	100 nM, human enzyme, together with: 10 µM ATP	relative to: untreated	remaining activity	24%
CN1CCN(Cc2ccc(NC(=O)c3cccc(C#Cc4cnc(N)c5ncccc45)c3)cc2C(F)(F)F)CC1	cell-free assay, competition with immobilised ligand	50 nM	–	remaining binding	100%
C=CC(=O)Nc1cccc(-c2cnc3[nH]cc(C(=O)NC(C)(C)C)c3n2)c1	enzyme activity, inhibitor	0.1 µM	–	inhibition	1%
CC(C)=CC1OC(C)(C)C2C=C3C(=O)C(Cl)=CC(O)C3C3C(O)C4OC4C(=O)C132 (stereo not drawn)	cell-free assay, competition with immobilised ligand	10 µM	–	remaining binding	95%
CNC(=O)C1CCN(c2cc(C)c(F)cc2NC(=O)c2ccc(-c3cc(O)ccc3C)c(C)c2)CC1	binding, competition with immobilised ligand	1 µM	–	remaining binding	95%
Nc1nc(Nc2ccccc2)sc1C(=O)c1ccccc1	enzyme activity, inhibitor	10 µM	–	remaining activity	80%
CC(=O)N1c2ccc(-c3ccc(CNC(=O)c4cn5cc(-c6cnc(N)nc6)nc(N6CCOCC6)c5n4)cc3)cc2CC[C@@H]1C	KINOMEscan	10 µM	–	remaining binding	87%
COc1c(OCCCN2CCOCC2)ccc2c1N=C(NC(=O)c1cnc(N)nc1)N1CCN=C21	kinase activity, inhibitor	1 µM	relative to: untreated control	remaining activity	100%
C=CC(=O)N1CCCC(n2c(=O)c3ncccc3n(Cc3ccc(Oc4ccccc4)cc3)c2=O)C1 (stereo not drawn)	cell-free assay, competition with immobilised ligand	1 µM	–	remaining binding	100%
NC(=O)C[C@H]1CCc2sc3ncnc(O[C@H]4CC[C@H](N5CCOCC5)CC4)c3c21	enzyme activity, inhibitor	10 µM	–	inhibition	-4%
C=CC(=O)N1Cc2nc(-c3cc(-c4cc(Cl)cnc4Cl)c(F)cc3F)n(-c3ccncn3)c2C1	cell-free assay, inhibitor	1 µM	–	inhibition	-1%
COc1c(Cl)cccc1Nc1c(-c2ccncc2C#C[C@@]2(C)CCCN2C(=O)/C=C/CN(C)C)[nH]c2c1C(=O)NCC2	binding, competition with immobilised ligand	3 µM	–	remaining binding	100%
CNC(=O)C[C@H](Cc1ccc(C#N)cc1)NC(=O)c1cc(-c2ccc(CN[C@H](C)c3ccc(C)cc3)o2)ccc1Cl	enzyme activity, inhibitor	1 µM	–	activity vs control	83%
Cc1cccc(-c2ccc3nc(NC(=O)C4CCCO4)nn3c2)c1 (stereo not drawn)	enzyme activity, Dundee kinase panel	10 µM	–	remaining activity	103%
C=CC(=O)N1CCc2ccc(-n3c(=O)ccc4cnc5ccc(-c6cnn(C)c6)cc5c43)cc21	KINOMEscan	1 µM	relative to: DMSO control	remaining binding	100%
COc1ccc(NC(=O)Nc2ccc3c(c2)C(=O)N(C(C)CO)CC(C)C(CN(C)Cc2ccc4c(c2)OCO4)O3)cc1 (stereo not drawn)	binding, competition with immobilised ligand	10 µM	–	remaining binding	85%
Cc1cccc(-c2ccc3nc(NC(=O)C4CCOCC4)nn3c2)c1	enzyme activity, Dundee kinase panel	10 µM	–	remaining activity	100%
C=C1CCCCCCCCCC(CO)C1=O (stereo not drawn)	cell-free assay, competition with immobilised ligand	10 µM	–	remaining binding	100%
Nc1ncc(-c2cc(-c3cnn(CC(F)(F)F)c3)ncc2F)nc1C(=O)NC1CNCC(F)C1 (stereo not drawn)	enzyme activity	1 µM	relative to: DMSO control	remaining activity	102%
COc1cc(Nc2nccc(-c3cnn4nc(OC)ccc34)n2)cc(C(F)(F)F)c1	binding, competition with immobilised ligand	1 µM	–	remaining binding	91%

Excerpt of the above:
Structure (SMILES)	test	setting	scale	quantity	result
C=CC(=O)Nc1cccc(-c2cnc3[nH]cc(C(=O)NC(C)(C)C)c3n2)c1	enzyme activity, inhibitor	0.1 µM	–	inhibition	1%
CC(C)=CC1OC(C)(C)C2C=C3C(=O)C(Cl)=CC(O)C3C3C(O)C4OC4C(=O)C132 (stereo not drawn)	cell-free assay, competition with immobilised ligand	10 µM	–	remaining binding	95%
